Measurements from different studies.
Numbered parts are unrelated; each lists some results of a single study. Substitutions count along the parent as printed.

Sample 1
Target: CCNB2, cyclin fold, Cln2 fusion (human)
Technique: yeast growth competition, sequencing
Sample: yeast
Setting: weak parent motif
Baseline: not given
Direction: higher = stronger binding
Parent: MASTL docking peptide (human); PMIAKNLMCELDE; partner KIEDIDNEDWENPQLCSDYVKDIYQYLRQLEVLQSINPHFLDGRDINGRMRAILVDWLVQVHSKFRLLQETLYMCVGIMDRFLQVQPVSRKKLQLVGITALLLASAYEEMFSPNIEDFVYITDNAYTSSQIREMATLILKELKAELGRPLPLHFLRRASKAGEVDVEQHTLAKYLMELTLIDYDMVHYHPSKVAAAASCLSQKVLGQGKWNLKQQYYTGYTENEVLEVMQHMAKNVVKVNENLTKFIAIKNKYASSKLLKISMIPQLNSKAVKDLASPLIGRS
`PMIAKNLMCEEDE [L11E]` — result for “normalised enrichment score”: 0.202.
For `PMIIKNLMCELDE [A4I]`, “normalised enrichment score” read 0.326.
`PMIVKNLMCELDE [A4V]`: “normalised enrichment score” 0.662.
`PMIAKNLNCELDE [M8N]`: “normalised enrichment score” -0.141.
`PMAAKNLMCELDE [I3A]` — result for “normalised enrichment score”: -0.0495.
`PMIALNLMCELDE [K5L]` — result for “normalised enrichment score”: 0.109.
`PMIAKNLDCELDE [M8D]`: “normalised enrichment score” 0.421.
Under “normalised enrichment score”, `PMIAKNRMCELDE [L7R]` is recorded as 0.0881.

Sample 2
Target: Fragile X messenger ribonucleoprotein 1, C-terminal low-complexity region (Fmr1, Mus musculus, UniProt P35922)
Technique: RNA Bind-n-Seq
Form: RNA
Sample: in vitro
Concentration: 200 nM
Setting: whole 134-nt RNA, ends assumed
Added: 150 mM LiCl
Baseline: input library
Direction: higher = stronger binding
Library: 7-deaza-guanosine replaces G
Shared flanks, not repeated: GGGAGUUCUACAGUCCGACGAUC … UGGAAUUCUCGGGUGUCAAGG
For `AGUCCUGUGCUACACAUCGUAUGUACCGAAUCGGAAAAAAAGGAAAAAGGUUUUUGGAAAGUAUUAUGUUACGCCGUUCGGAUCUGCACU`, the log2 enrichment was -3.12.
The log2 enrichment of `AGUCCUGUGCUACACAUCGUAUGUACCGAAUCAAAUUUUUUUAAACCCAAACCCAAAAAAGUAUUAUGUUACGCCGUUCGGAUCUGCACU` is reported as 0.551.
The log2 enrichment of `UGGGAGGUGGAUUUUGUUUAUUUUUUUAGCUUAUUUCCAGGGGUGGGAAUUUUUUUUUAAUAUGUGUCAUGAAUAAAGUUGUUUUUGAAA` is reported as 0.473.
With `ACCAUGCAGGUGGGCAUCUUUGGGAAGUGGGGCAAGGAGGGGAUAGGGAGGGGGGUAACACUUUGGGAACAGGUGGUCCCAGGUCGUUUC` the log2 enrichment was 1.4.
For `UCCUUUUUUUUUUUCUUUGAAUGUAUUUAUUUCUUGUAGUCUACUGGUGCUGUUGUGACGGAGAGCCAGACGUACAAAAACCGAGCUGGU`, the log2 enrichment was 0.904.

Sample 3
Target: Prothrombin, mature alpha-thrombin (F2, Homo sapiens, UniProt P00734)
Technique: aptamer microarray, sandwich
Form: DNA with 2'F-ANA
Sample: in vitro
Concentration: 200 nM
Setting: whole 15-mer aptamer, many near background
Added: Cy3 exosite-II aptamer, 400 nM
Direction: higher = stronger binding
Oligonucleotide: GGTTGGTGTGGTTGG
`2'F-ANA at 2 4 5 6 10 12 13 14 15` — result for “mean fluorescence intensity”: 50 a.u.
`2'F-ANA at 1 2 5 6 8 10 11 14 15` — result for “mean fluorescence intensity”: 54.4 a.u.
For `2'F-ANA at 8 12 13`, “mean fluorescence intensity” read 797 a.u.
For `2'F-ANA at 1 2 3 4 7 9 11`, “mean fluorescence intensity” read 142 a.u.
Under “mean fluorescence intensity”, `2'F-ANA at 1 5 7 8 9 11` is recorded as 53.2 a.u.
Under “mean fluorescence intensity”, `2'F-ANA at 2 3 6 8 10 12 13 14 15` is recorded as 255 a.u.
Under “mean fluorescence intensity”, `2'F-ANA at 1 2 3 4 7 10 11 12 13 15` is recorded as 64.3 a.u.
`2'F-ANA at 4 10 11`: “mean fluorescence intensity” 86.8 a.u.

Other studies, line by line
For `PhoQ, residues 284 288 289 292 302 303 GANMMA`, the fold induction was 10.9 (PhoP, residues 12 14 15 18 19 SQCLL (Escherichia coli, UniProt P23836); Sort-seq, item: YFP reporter; E. coli; PhoQ-PhoP variant library, added: 10 µM Mg2+; baseline: high Mg2+ state, higher = stronger signaling).
